Assay results from different studies.
Lines come from different studies, so protocols differ. ± gives the spread as reported.
Melanocortin receptor 5: Melanocortin receptor 5 (Mus musculus, UniProt P41149)
Chain of UniProt P41149 (whole entry, looked up): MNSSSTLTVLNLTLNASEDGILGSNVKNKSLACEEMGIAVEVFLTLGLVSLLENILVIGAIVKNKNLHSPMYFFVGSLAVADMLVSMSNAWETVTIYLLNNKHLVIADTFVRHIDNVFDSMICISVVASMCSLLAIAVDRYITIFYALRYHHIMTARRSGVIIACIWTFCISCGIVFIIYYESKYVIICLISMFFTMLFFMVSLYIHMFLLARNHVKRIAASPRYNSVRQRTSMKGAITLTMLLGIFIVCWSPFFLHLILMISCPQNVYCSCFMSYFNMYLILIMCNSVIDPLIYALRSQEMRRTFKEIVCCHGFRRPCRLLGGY
MBLAC2: MBLAC2 (Homo sapiens, UniProt Q68D91)
Chain of UniProt Q68D91 (whole entry, looked up): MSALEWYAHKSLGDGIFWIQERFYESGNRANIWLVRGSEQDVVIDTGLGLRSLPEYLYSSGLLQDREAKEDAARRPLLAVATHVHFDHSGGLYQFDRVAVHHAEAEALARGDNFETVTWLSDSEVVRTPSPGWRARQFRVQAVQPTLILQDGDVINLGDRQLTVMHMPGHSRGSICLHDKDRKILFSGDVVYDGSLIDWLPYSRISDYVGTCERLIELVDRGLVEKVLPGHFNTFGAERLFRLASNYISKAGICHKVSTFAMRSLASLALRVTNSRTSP
CD209: CD209 antigen (CD209, Homo sapiens, UniProt Q9NNX6)
Chain of UniProt Q9NNX6 (whole entry, looked up): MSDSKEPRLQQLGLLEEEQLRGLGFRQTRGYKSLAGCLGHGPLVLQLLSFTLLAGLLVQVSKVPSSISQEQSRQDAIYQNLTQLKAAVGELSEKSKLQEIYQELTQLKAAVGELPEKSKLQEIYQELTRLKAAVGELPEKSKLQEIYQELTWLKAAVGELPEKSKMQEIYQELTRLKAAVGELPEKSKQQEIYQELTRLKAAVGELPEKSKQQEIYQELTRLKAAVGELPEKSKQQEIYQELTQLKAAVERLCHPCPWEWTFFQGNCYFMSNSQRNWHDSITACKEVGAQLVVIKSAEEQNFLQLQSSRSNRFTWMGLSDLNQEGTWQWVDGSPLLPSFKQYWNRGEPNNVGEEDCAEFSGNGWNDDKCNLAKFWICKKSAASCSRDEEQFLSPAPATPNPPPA
CFTR del508-508: Cystic fibrosis transmembrane conductance regulator (CFTR, Homo sapiens, UniProt P13569, del508-508)
Chain of UniProt Q9HBX9 (whole entry, looked up): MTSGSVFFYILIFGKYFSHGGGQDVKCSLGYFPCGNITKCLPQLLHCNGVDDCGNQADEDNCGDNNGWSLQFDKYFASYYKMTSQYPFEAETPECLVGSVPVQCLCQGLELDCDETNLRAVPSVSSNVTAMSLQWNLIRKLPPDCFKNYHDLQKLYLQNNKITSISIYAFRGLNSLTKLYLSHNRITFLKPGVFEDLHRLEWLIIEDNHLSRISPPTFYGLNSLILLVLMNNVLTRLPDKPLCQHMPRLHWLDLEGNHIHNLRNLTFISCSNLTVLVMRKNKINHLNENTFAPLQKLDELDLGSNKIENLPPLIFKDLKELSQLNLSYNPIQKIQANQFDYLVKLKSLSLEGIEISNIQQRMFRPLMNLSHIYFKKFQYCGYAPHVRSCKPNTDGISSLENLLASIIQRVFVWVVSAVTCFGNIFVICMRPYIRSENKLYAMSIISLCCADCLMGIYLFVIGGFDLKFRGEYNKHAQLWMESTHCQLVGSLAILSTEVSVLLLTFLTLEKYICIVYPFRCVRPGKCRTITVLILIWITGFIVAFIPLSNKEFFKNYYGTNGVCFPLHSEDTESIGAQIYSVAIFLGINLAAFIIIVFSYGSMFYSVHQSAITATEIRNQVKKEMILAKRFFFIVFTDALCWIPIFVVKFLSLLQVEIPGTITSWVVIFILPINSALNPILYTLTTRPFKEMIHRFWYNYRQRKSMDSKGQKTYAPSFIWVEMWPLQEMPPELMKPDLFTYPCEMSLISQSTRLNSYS
Chain of UniProt P41145 (whole entry, looked up): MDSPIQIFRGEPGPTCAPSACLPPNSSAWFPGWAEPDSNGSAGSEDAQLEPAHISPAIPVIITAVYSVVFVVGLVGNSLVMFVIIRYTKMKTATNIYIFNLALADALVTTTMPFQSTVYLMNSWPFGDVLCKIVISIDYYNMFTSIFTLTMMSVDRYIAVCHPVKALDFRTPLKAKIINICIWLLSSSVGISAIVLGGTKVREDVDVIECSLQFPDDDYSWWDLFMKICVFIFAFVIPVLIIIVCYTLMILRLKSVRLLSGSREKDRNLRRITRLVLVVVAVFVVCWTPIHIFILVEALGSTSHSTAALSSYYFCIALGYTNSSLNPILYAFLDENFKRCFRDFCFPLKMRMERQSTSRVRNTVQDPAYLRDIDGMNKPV
Chain of UniProt P56726 (whole entry, unmodified, looked up): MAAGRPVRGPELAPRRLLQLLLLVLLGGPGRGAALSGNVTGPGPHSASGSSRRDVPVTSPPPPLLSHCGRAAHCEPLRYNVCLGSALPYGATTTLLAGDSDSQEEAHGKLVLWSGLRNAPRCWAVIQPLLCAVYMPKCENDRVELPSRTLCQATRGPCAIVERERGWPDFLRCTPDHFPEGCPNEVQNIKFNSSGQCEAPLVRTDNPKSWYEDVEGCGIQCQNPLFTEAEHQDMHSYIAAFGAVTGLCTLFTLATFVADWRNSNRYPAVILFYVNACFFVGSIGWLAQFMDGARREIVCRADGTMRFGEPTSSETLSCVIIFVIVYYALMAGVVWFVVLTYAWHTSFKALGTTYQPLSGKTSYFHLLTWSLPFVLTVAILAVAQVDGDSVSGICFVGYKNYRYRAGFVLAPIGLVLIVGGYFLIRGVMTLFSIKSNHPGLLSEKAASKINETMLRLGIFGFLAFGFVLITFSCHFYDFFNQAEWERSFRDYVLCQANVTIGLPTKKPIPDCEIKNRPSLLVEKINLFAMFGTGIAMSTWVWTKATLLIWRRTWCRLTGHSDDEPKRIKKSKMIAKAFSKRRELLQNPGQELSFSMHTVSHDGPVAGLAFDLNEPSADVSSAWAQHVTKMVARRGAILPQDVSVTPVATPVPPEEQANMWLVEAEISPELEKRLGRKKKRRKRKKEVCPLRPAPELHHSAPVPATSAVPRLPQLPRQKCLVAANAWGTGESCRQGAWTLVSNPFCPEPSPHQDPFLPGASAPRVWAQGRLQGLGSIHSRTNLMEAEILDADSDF
Chain of UniProt P62508 (whole entry, looked up): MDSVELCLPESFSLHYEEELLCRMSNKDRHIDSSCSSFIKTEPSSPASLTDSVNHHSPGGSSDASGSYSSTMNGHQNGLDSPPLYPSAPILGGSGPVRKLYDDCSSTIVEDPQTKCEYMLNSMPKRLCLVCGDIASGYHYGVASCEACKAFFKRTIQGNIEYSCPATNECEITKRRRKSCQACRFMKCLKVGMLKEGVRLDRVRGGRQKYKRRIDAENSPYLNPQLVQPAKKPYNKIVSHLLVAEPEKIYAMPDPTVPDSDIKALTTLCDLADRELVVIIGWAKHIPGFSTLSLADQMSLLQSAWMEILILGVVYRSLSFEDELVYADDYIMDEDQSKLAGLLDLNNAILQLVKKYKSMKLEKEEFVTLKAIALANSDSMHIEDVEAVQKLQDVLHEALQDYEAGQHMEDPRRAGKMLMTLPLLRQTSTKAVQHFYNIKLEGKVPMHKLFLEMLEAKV
Chain of UniProt Q9UHM6 (whole entry, looked up): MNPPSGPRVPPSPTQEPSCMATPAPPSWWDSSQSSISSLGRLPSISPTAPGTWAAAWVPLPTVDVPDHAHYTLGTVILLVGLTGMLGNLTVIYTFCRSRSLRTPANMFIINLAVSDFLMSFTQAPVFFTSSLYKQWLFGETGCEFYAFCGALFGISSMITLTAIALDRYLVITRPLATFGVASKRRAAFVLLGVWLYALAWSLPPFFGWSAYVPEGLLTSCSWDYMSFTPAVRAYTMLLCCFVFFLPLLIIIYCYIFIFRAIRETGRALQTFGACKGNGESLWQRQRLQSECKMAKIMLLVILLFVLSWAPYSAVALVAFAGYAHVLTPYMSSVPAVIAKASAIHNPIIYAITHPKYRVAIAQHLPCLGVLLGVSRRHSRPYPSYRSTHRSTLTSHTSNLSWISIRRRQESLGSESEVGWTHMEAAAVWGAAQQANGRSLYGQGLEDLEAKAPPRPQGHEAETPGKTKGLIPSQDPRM
Chain of UniProt Q8WXD0 (whole entry, looked up): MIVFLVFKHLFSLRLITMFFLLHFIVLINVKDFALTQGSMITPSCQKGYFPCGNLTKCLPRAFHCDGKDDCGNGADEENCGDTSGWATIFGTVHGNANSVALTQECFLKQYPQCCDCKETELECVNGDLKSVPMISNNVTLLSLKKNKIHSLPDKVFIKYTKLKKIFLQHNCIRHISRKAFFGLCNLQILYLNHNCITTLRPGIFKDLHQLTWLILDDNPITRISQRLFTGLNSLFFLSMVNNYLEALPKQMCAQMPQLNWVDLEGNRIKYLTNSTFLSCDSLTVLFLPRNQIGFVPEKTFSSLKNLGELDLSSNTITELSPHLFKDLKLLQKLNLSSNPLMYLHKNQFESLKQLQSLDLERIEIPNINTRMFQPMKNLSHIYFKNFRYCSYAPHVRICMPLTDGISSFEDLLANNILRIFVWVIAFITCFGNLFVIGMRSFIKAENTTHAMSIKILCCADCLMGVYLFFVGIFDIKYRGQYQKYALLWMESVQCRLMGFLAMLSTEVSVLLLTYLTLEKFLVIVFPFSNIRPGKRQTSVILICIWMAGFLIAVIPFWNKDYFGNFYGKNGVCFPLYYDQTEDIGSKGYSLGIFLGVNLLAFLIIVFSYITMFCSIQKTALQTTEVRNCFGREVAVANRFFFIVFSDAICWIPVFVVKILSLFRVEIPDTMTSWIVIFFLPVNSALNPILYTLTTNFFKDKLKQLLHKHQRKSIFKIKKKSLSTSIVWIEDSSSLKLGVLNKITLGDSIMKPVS

CCCC[C@H](NC(=O)[C@H](CO)NC(=O)[C@H](Cc1ccc(O)cc1)NC(=O)[C@H](CO)NC(C)=O)C(=O)N[C@@H](CCC(=O)O)C(=O)N[C@@H](Cc1c[nH]cn1)C(=O)N[C@H](Cc1ccccc1)C(=O)N[C@@H](CCCNC(=N)N)C(=O)N[C@@H](Cc1c[nH]c2ccccc12)C(=O)NCC(=O)N[C@@H](CCCCN)C(=O)N1CCC[C@H]1C(=O)N[C@@H](C)C(N)=O  EC50 (Melanocortin receptor 5): 0.24 ± 0.04 nM
O=C(NO)c1cnc(NC2(c3ccccc3)CC2)nc1  EC50 (MBLAC2; palmitoyl-CoA hydrolysis, inhibitor; together with: [3H]palmitoyl-CoA): 501 nM
O=C(Nc1ccccc1C(=O)Nc1ccccc1C(=O)NCc1ccco1)c1ccco1  EC50 (Relaxin receptor 1 (RXFP1, Homo sapiens, UniProt Q9HBX9); cAMP, agonist, TR-FRET): 3800 nM
O=C(COc1ccc(Cl)cc1)N[C@H]1CC[C@H](NC(=O)COc2ccc(Cl)cc2)CC1  EC50 (Translation initiation factor eIF2B (Cricetulus griseus, UniProt A0A8C2M9U0+A0A8C2MKR7); guanine nucleotide exchange, activator, Bodipy-FL-GDP release; Cricetulus griseus cell lysate; together with: phosphorylated eIF2 substrate): 27 nM
FC(F)(F)c1cc(Nc2nc(Cl)nc(Cl)n2)cc(C(F)(F)F)c1  EC50 (CD209; binding, grating-coupled interferometry; mannose-PEG3 chip; overnight, Tris quench): 100000 nM
CSCC[C@H](NC(=O)[C@H](CCC(=O)O)NC(=O)[C@@H]1CCCN1C(=O)[C@@H](NC(=O)[C@@H]1CCCN1)[C@@H](C)O)C(=O)N[C@@H](CCCNC(=N)N)C(=O)N[C@@H](CCC(=O)O)C(=O)N[C@@H](CCCCN)C(=O)N[C@@H](CC(C)C)C(=O)N[C@H]1CSSC[C@@H]2NC(=O)[C@@H](NC(=O)[C@H](Cc3ccc(O)cc3)NC(=O)[C@H](CCCNC(=N)N)NC(=O)[C@H](C)NC(=O)[C@@H]3CCCN3C(=O)[C@H](CC(N)=O)NC(=O)[C@@H](NC(=O)[C@H](C)NC(=O)[C@H](C)NC(=O)[C@H](C)N)[C@@H](C)O)CSSC[C@H](NC(=O)CNC(=O)[C@H](CO)NC(=O)[C@H](CC(C)C)NC2=O)C(=O)N[C@@H]([C@@H](C)O)C(=O)N[C@@H](CCC(N)=O)C(=O)N[C@@H](CCC(N)=O)C(=O)N[C@@H](CC(=O)O)C(=O)N[C@@H](CC(C)C)C(=O)N[C@@H](CC(C)C)C(=O)N[C@@H]([C@@H](C)O)C(=O)N[C@@H](CC(C)C)C(=O)N[C@H](C(=O)N2CCC[C@H]2C(=O)N[C@@H](Cc2ccc(O)cc2)C(=O)O)CSSC[C@@H](C(=O)NCC(=O)NCC(=O)N2CCC[C@H]2C(=O)N[C@@H](CCCNC(=N)N)C(=O)N[C@@H](Cc2c[nH]c3ccccc23)C(=O)N[C@@H](CO)C(=O)N[C@H](C(=O)N[C@@H](CCC(=O)O)C(=O)N[C@@H](C)C(=O)O)[C@@H](C)O)NC(=O)[C@H](C(C)C)NC(=O)[C@H](CCCNC(=N)N)NC(=O)[C@H](C(C)C)NC(=O)[C@H](CC(C)C)NC(=O)[C@H](C)NC(=O)[C@H](CCCNC(=N)N)NC(=O)[C@H](C(C)C)NC(=O)[C@H](Cc2ccccc2)NC(=O)[C@H](Cc2c[nH]cn2)NC(=O)[C@H](Cc2c[nH]cn2)NC(=O)CNC1=O  EC50 (Relaxin receptor 2 (RXFP2, Homo sapiens, UniProt Q8WXD0); cAMP production, agonist, CAMYEL BRET; HEK293 transfected; 5 min, 37 °C): 2.24 nM
COc1ccc(Cl)cc1Cn1nc(-c2sc(NC(=O)C(C)(C)C)nc2C)cc1C(=O)N1CCOCC1  EC50 (CFTR del508-508; iodide influx, corrector, YFP quenching; FRT expressing ΔF508-CFTR and YFP-H148Q/I152L; together with: forskolin 20 µM + genistein 50 µM): 1000 nM
CCCCc1nc2cc(/C=C/C(=O)NO)ccc2n1CCN(CC)CC  EC50 (MBLAC2; palmitoyl-CoA hydrolysis, inhibitor; together with: [3H]palmitoyl-CoA): < 6.31 nM
CCCC[C@H](NC(=O)[C@H](CO)NC(=O)[C@H](Cc1ccc(O)cc1)NC(=O)[C@H](CO)NC(C)=O)C(=O)N[C@@H](CCC(=O)O)C(=O)N[C@@H](Cc1c[nH]cn1)C(=O)N[C@H](Cc1ccccc1)C(=O)N[C@@H](CCCNC(=N)N)C(=O)N[C@@H](Cc1c[nH]c2ccccc12)C(=O)N[C@@H](C)C(=O)N[C@@H](CCCCN)C(=O)N1CCC[C@H]1C(=O)N[C@H](C(N)=O)C(C)C  EC50 (Melanocortin receptor 5): 0.11 ± 0.02 nM
CC1=C(/C=C/C(C)=C\C=C\C(C)=C\C=O)C(C)(C)CCC1  EC50 (Melanopsin (OPN4, Homo sapiens, UniProt Q9UHM6); light-induced calcium release, FLIPR Fluo-4; CHO cells expressing Opn4; light-exposed cells, added immediately before light): 20 ± 9 nM
CCCC[C@H](NC(=O)[C@H](CO)NC(=O)[C@H](C)NC(=O)[C@H](CO)NC(C)=O)C(=O)N[C@@H](CCC(=O)O)C(=O)N[C@@H](Cc1c[nH]cn1)C(=O)N[C@H](Cc1ccccc1)C(=O)N[C@@H](CCCNC(=N)N)C(=O)N[C@@H](Cc1c[nH]c2ccccc12)C(=O)NCC(=O)N[C@@H](CCCCN)C(=O)N1CCC[C@H]1C(=O)N[C@H](C(N)=O)C(C)C  EC50 (Melanocortin receptor 5): 0.085 ± 0.003 nM
O=C(CN1CCCC1C(=O)Nc1nccs1)Nc1cccc(F)c1 (stereo not shown)  EC50 (OPRK1 (Homo sapiens, UniProt P41145); G protein activation, agonist, BRET): 7200 nM
CCCCC[C@@](C)(O)[C@H]1CC[C@H]2[C@@H]3CC=C4C[C@@H](O)CC[C@]4(C)[C@H]3CC[C@@]21C  EC50 (Protein smoothened (Smo, Mus musculus, UniProt P56726, G115S); Hh pathway activation, agonist, measured: Gli1 mRNA; Smo-null cells rescued with Smo): 1300 nM
CCCC[C@H](NC(=O)[C@H](CO)NC(=O)[C@H](Cc1ccc(O)cc1)NC(=O)[C@H](CO)NC(C)=O)C(=O)N[C@@H](CCC(=O)O)C(=O)N[C@@H](Cc1c[nH]cn1)C(=O)N[C@@H](C)C(=O)N[C@@H](CCCNC(=N)N)C(=O)N[C@@H](Cc1c[nH]c2ccccc12)C(=O)NCC(=O)N[C@@H](CCCCN)C(=O)N1CCC[C@H]1C(=O)N[C@H](C(N)=O)C(C)C  EC50 (Melanocortin receptor 5): 25 ± 11 nM
Cn1c(=O)c(-c2ccccc2N)nc2ccccc21  EC50 (CFTR (Homo sapiens, UniProt P13569); channel activation, activator, YFP halide sensor; FRT cells; approximate, together with: 125 nM forskolin): > 25000 nM
CSCC[C@H](NC(=O)[C@H](CO)NC(=O)[C@H](Cc1ccc(O)cc1)NC(=O)[C@H](CO)NC(C)=O)C(=O)N[C@@H](C)C(=O)N[C@@H](Cc1c[nH]cn1)C(=O)N[C@@H](Cc1ccccc1)C(=O)N[C@@H](CCCNC(=N)N)C(=O)N[C@@H](Cc1c[nH]c2ccccc12)C(=O)NCC(=O)N[C@@H](CCCCN)C(=O)N1CCC[C@H]1C(=O)N[C@H](C(N)=O)C(C)C  EC50 (Melanocortin receptor 5): 65 ± 85 nM
O=C(ON1C(=O)CCC1=O)c1cc(C(F)(F)F)cc(C(F)(F)F)c1  EC50 (CD209; binding, grating-coupled interferometry; mannose-PEG3 chip; overnight, Tris quench): 30000 nM
CSCC[C@H](NC(=O)[C@H](CO)NC(=O)[C@H](Cc1ccc(O)cc1)NC(=O)[C@H](CO)NC(C)=O)C(=O)N[C@@H](CCC(=O)O)C(=O)N[C@@H](Cc1c[nH]cn1)C(=O)N[C@@H](Cc1ccccc1)C(=O)N[C@@H](CCCNC(=N)N)C(=O)N[C@@H](Cc1c[nH]c2ccccc12)C(=O)NCC(=O)N[C@@H](C)C(=O)N1CCC[C@H]1C(=O)N[C@H](C(N)=O)C(C)C  EC50 (Melanocortin receptor 5): 7.1 ± 3.13 nM
C=CCn1nc(-c2sc(NC(=O)C(C)(C)C)nc2C)cc1C(=O)NCc1ccccc1  EC50 (CFTR del508-508; iodide influx, corrector, YFP quenching; FRT expressing ΔF508-CFTR and YFP-H148Q/I152L; together with: forskolin 20 µM + genistein 50 µM): 3000 nM
Cc1ccccc1C(=O)NN=Cc1ccccc1  EC50 (ESRRG (Homo sapiens, UniProt P62508); reporter gene, agonist, luciferase reporter; HEK293 transfected): 1600 nM
CCCC[C@H](NC(=O)[C@H](CO)NC(=O)[C@H](Cc1ccc(O)cc1)NC(=O)[C@H](CO)NC(C)=O)C(=O)N[C@@H](CCC(=O)O)C(=O)N[C@@H](Cc1c[nH]cn1)C(=O)N[C@H](Cc1ccccc1)C(=O)N[C@@H](C)C(=O)N[C@@H](Cc1c[nH]c2ccccc12)C(=O)NCC(=O)N[C@@H](CCCCN)C(=O)N1CCC[C@H]1C(=O)N[C@H](C(N)=O)C(C)C  EC50 (Melanocortin receptor 5): 0.32 ± 0.09 nM
CCCCCOC(C)=O  EC50 (Olfr124 (Mus musculus, UniProt Q0VEF0); transduction current, agonist, perforated patch clamp; septal organ olfactory neurons, mouse; pH 7.4, 25 °C): 1200 ± 800 nM

Some of these lines once more:
Cc1ccccc1C(=O)NN=Cc1ccccc1  EC50 (ESRRG (Homo sapiens, UniProt P62508); reporter gene, agonist, luciferase reporter; HEK293 transfected): 1600 nM
O=C(NO)c1cnc(NC2(c3ccccc3)CC2)nc1  EC50 (MBLAC2; palmitoyl-CoA hydrolysis, inhibitor; together with: [3H]palmitoyl-CoA): 501 nM
